Measurements collected from several papers.
Parts stem from different laboratories: compare values within a part only.
Sequence of UniProt Q8S8P5 (169-264, looked up): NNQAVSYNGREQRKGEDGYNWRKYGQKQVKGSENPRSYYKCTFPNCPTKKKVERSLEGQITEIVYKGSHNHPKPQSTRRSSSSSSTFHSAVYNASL

Block 1 — technique: protein-binding microarray; molecule type: double-stranded DNA, one strand shown; medium: in vitro; tested at: 2540 nM top; notes: 60-bp whole probe; added: salmon DNA 0.4 mg/ml; relative to: random background probes; reading: higher = stronger binding; all sequences stand within: GCCTAGCAC … GTCTTGATTCGCTTGACGCTGCTG
Target: Interferon regulatory factor 3, full length, phosphomimetic (IRF3, Homo sapiens, UniProt Q14653, residues 1-427, S386D/S396D/S398D/S402D/T404D/S405D)
Sequence of UniProt Q14653 (whole entry, unmodified, looked up): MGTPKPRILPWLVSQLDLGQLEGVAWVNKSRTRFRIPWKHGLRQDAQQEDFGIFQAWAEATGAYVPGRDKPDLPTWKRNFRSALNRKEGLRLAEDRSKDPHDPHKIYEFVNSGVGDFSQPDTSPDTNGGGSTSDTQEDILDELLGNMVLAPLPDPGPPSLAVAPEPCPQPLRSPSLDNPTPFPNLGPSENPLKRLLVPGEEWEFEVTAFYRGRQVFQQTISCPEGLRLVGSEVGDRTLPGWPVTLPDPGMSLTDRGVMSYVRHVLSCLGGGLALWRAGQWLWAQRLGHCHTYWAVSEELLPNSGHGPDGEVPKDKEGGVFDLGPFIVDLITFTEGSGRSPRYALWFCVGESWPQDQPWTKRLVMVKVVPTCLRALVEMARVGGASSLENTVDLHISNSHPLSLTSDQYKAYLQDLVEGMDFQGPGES
| Strand | fitted relative affinity [z-score] |
| --- | --- |
| GACGGTCTCGATCTCGGGACGTGCTAG | 1.17 |
| GACGAACTGACTATCGAGACGTGCTAG | -0.00778 |
| TCATCTCTTGTTCTCTCACTGTGCTAG | 0.909 |
| GACGGTATCCTTCTCCTGATGTGCTAG | 6.38 |
| TTAGAACTCGGGTATCGATTAGTGCTA | -0.16 |
| GACGGTTTCGTTTTCCTGACGTGCTAG | 8.93 |
| AATTACATTTCATAGAGTGTGTGCTAG | 1.28 |
| TCATGTTTAAGAATGTTACTGTGCTAG | 0.0877 |

Block 2 — observed: enzyme activity; action: inhibitor; tested at: 20 µM
Target: Replicase polyprotein 1ab, polymerase (rep, Severe acute respiratory syndrome coronavirus 2, UniProt P0DTD1)
| SMILES | inhibition [%] |
| --- | --- |
| Cc1csc(-c2nnc(Nc3ccc(Oc4ncccc4-c4ccnc(N)n4)cc3)c3ccccc23)c1 | 5.51 |
| CCCn1c(=O)c2[nH]c(C34C[C@@H]5CC3C[C@@H](C5)C4)nc2n(CCC)c1=O | 1.52 |
| CN(C)CCC=C1c2ccccc2C=Cc2ccccc21 | -5.48 |
| N[C@@H](CC(=O)O)C(=O)O | -0.5 |
| c1ccc2c(c1)OCC(C1=NCCN1)O2 (stereo not drawn) | 5.53 |
| O=C(O)Cc1cccc(OCCCN(Cc2cccc(C(F)(F)F)c2Cl)CC(c2ccccc2)c2ccccc2)c1 | 6.21 |
| CC(=O)N[C@H]1[C@@H](O)[C@H](O)[C@@H](CO)O[C@@H]1O | 1.64 |
| CC(C)(C)[C@H]1CC[C@H](CC2=C(O)C(=O)c3ccccc3C2=O)CC1 | -4.15 |
| Cc1csc2c(N[C@@H](C)CN3CCN(S(=O)(=O)c4ccc(Cl)c(Cl)c4)CC3)ncnc12 | -2.46 |
| Cc1cc(Nc2cc(N3CCN(C)CC3)nc(Sc3ccc(NC(=O)C4CC4)cc3)n2)n[nH]1 | -0.71 |
| O=c1cc(N2CCN(c3cccc(C(F)(F)F)c3)CC2)[nH]c(=O)n1C1CCCCC1 | -4.27 |
| Nc1ncnc2c1ncn2C1CCCO1 (stereo not drawn) | 3.04 |
| CC[C@@]1(O)C(=O)OCc2c1cc1n(c2=O)Cc2cc3c(N)cccc3nc2-1 | 6.33 |
| Cc1nccc2[nH]c(=O)ccc12 | -7.22 |
| CC(C)(C)NS(=O)(=O)c1cncc(-c2cc(F)c3nc(N)nn3c2)c1 | -16.9 |
| CCCCC#Cc1nc(NC)c2ncn([C@@H]3O[C@H](CO)[C@@H](O)[C@H]3O)c2n1 | -7.6 |
| Fc1ccc(C(OCCN2CCN(CCCc3ccccc3)CC2)c2ccc(F)cc2)cc1 | -2.64 |
| COCCNC(=O)COc1ccc(OCCNC[C@H](O)COc2ccccc2)cc1 | -3.01 |
| O=C(O)CSCC(=O)NC1CCSC1=O (stereo not drawn) | 24.8 |
| COc1ccc(S(=O)(=O)Nc2cc(Cl)cc(Cl)c2OC)cc1N1CCNCC1 | -15.5 |
| CN(C)c1ccc(-c2nc3ncc(Cl)c(N4CCN(CC(=O)Nc5nccs5)CC4)c3[nH]2)cc1 | -3.29 |
| CN1CCCCC1CCN1c2ccccc2Sc2ccc([S+](C)[O-])cc21 (stereo not drawn) | 0.42 |
| CCC(c1ccccc1)c1c(O)c2ccccc2oc1=O (stereo not drawn) | 4.16 |
| C[C@H]1CCC/C=C/[C@@H]2C[C@H](O)C[C@H]2[C@H](O)/C=C/C(=O)O1 | 6.74 |
| Cc1[nH]c2ccc(F)cc2c1-c1nc2c3cccnc3c3ncccc3c2[nH]1 | -15.9 |

Block 3 — cell line: HEK-293T/ACE2; observed: pseudovirus infection; organism: VSV pseudotyped with SARS-CoV-2 spike; tested at: concentration not given; relative to: vehicle-treated
| SMILES | GFP-positive cells [%] |
| --- | --- |
| C[C@H]1O[C@]2(CS1)CN1CCC2CC1.C[C@H]1O[C@]2(CS1)CN1CCC2CC1.Cl.Cl.O | 80.1 |
| CC(=O)O[C@]1(C(C)=O)CC[C@H]2[C@@H]3C[C@H](C)C4=CC(=O)CC[C@]4(C)[C@H]3CC[C@@]21C | 92.5 |
| CC(CN(C)C)CN1c2ccccc2Sc2ccccc21.CC(CN(C)C)CN1c2ccccc2Sc2ccccc21.O=C(O)C(O)C(O)C(=O)O (stereo not drawn) | 32.7 |

Block 4 — technique: RNAcompete; molecule type: RNA; medium: in vitro; tested at: 20 nM; notes: 7-mer, probes averaged, single round; relative to: mean of 7-mers; reading: higher = stronger binding
Target: PABPC1L2, full length, GST fusion (mouse, UniProt A0ABA7IW68)
Residues (chain): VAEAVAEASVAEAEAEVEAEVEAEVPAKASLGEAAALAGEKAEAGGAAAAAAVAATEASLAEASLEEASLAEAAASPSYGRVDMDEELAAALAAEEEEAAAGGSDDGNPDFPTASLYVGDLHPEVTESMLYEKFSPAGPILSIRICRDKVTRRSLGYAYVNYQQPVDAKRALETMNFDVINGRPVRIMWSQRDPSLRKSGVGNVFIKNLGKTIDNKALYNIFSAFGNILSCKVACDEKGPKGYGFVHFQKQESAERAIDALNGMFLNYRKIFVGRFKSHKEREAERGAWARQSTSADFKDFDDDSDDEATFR
| Strand | 7-mer Z-score |
| --- | --- |
| CUCAACA | -0.151 |
| GGGCCGU | -0.0899 |
| CCACAGU | -0.295 |
| ACCACCA | -0.0446 |
| CAAAUCA | 0.249 |
| UUGCGUG | -0.302 |
| ACUCAUC | -0.273 |
| GAUGAUA | -0.0554 |

Block 5 — observed: enzyme activity; action: inhibitor; tested at: 20 µM
Target: Replicase polyprotein 1ab, main protease (rep, Severe acute respiratory syndrome coronavirus 2, UniProt P0DTD1)
| Structure (SMILES) | inhibition |
| --- | --- |
| COc1ccc(C(=O)n2nc(-c3ccccc3)nc2N)cc1OC | 31.5% |
| O=C(O)c1cc(N2N=C(C(F)(F)F)/C(=C/c3ccc(-c4ccccc4)o3)C2=O)ccc1Cl | 35.4% |
| c1ccc2sc(SNC3CCCCC3)nc2c1 | 69.6% |
| C/N=c1/nc(-c2ccccc2)n(-c2ccccc2)s1 | -11.6% |

Mixed results — technique: DNA-protein interaction ELISA; molecule type: double-stranded DNA, one strand shown; medium: in vitro, bacterial lysate; tested at: not given; notes: whole dsDNA probe, crude lysate protein; relative to: highest signal in screen; reading: higher = stronger binding
WRKY50 DNA-binding domain: Probable WRKY transcription factor 50, DNA-binding domain (WRKY50, Arabidopsis thaliana, UniProt Q8VWQ5, residues 99-173)
Sequence of UniProt Q8VWQ5 (99-173, looked up): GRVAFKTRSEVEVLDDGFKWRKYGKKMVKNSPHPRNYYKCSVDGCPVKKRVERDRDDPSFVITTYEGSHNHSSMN
| Strand | target | relative absorbance |
| --- | --- | --- |
| AAAAAATGCTATCCGTGTCTATGCCAAAAA | Probable WRKY transcription factor 33, N-terminal DNA-binding domain (WRKY33, Arabidopsis thaliana, UniProt Q8S8P5, residues 169-264) | 18.1 % of maximum |
| AAAAAAATCCGATCGATGCATATATAAAA | WRKY50 DNA-binding domain | 20.1 % of maximum |
| AAAAAAGACACTCTAATTCCGTAGGCAAAA | WRKY50 DNA-binding domain | 18.7 % of maximum |

A few entries again (block 2):
| SMILES | inhibition [%] |
| --- | --- |
| Cc1cc(Nc2cc(N3CCN(C)CC3)nc(Sc3ccc(NC(=O)C4CC4)cc3)n2)n[nH]1 | -0.71 |
| O=c1cc(N2CCN(c3cccc(C(F)(F)F)c3)CC2)[nH]c(=O)n1C1CCCCC1 | -4.27 |
| Nc1ncnc2c1ncn2C1CCCO1 (stereo not drawn) | 3.04 |
| CC[C@@]1(O)C(=O)OCc2c1cc1n(c2=O)Cc2cc3c(N)cccc3nc2-1 | 6.33 |
| Cc1nccc2[nH]c(=O)ccc12 | -7.22 |
| CC(C)(C)NS(=O)(=O)c1cncc(-c2cc(F)c3nc(N)nn3c2)c1 | -16.9 |
